Measured values pooled from the literature.
Each numbered part is a random draw from the data of one study; scales do not carry over between parts.

Study 1
Target: Protein C-ets-1 (ETS1, Homo sapiens, UniProt P14921, residues 1-441, Y397A, full length assumed)
Technique: protein-binding microarray
Molecule type: double-stranded DNA, one strand shown
Sample: in vitro
Tested at: not given
Notes: k-mer, scored over probes, only values ≥0.25
Reading: higher = stronger binding
Construct (chain): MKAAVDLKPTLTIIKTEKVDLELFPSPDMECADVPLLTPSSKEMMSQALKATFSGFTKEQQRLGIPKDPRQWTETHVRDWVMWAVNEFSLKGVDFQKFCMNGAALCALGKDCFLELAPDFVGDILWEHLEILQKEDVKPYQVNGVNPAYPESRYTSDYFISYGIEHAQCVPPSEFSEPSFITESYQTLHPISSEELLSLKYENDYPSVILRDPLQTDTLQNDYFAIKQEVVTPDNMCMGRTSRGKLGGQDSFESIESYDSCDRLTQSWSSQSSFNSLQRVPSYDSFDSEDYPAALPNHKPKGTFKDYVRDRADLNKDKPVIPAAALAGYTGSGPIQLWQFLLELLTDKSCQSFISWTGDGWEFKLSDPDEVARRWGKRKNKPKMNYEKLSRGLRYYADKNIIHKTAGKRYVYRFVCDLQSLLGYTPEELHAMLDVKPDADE
| Strand | E-score |
| --- | --- |
| TGCCAACA | 0.309 |
| GTGACAAA | 0.409 |
| CGTTTTGC | 0.352 |
| CAATCGCG | 0.27 |
| ATTGTCGG | 0.384 |

Study 2
Target: RNA binding protein fox-1 homolog 2, RRM domain, GST-SBP tag (RBFOX2, Homo sapiens, UniProt O43251-10, residues 100-194)
Technique: RNA Bind-n-Seq
Molecule type: RNA
Sample: in vitro
Tested at: 365 nM
Notes: natural RNA segment, single round, ends assumed
Relative to: no-protein control
Reading: higher = stronger binding
All sequences stand within: GGGAGUUCUACAGUCCGACGAUC … UGGAAUUCUCGGGUGCCAA
Construct (chain): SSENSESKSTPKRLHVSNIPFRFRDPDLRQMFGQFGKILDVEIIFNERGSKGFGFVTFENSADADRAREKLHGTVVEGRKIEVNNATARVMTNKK
| Strand | RBNS enrichment (R) |
| --- | --- |
| AUGACUCUUUCUGAAGGAAGAGAAGACAUUUGCCUUUUGUUAAAAGAUGGUAAACCAGAUCUGUCUCCAAGACCUUGGCCUCUCCUUGGAGGACCUUUAGGUCAAACUCC | 0.201 |
| AGUCCUGCUGACCACCUAGUCAUGGACAAAGGCCCAGGACCAGUGACACCCUGCGUCCCUGUGUGCAUUAAGUUCAUUCUGGGUCGCAGCCAUGAAGUGUCACCAGUAUC | 0.21 |
| CUUUGAACCUGAUUGAAAUGCAAAGCAAGGGUGACUCAUUGUUAGGAGAAGUAAAGGCCACGGAAGGUAUGGUAGUUUCUGGAGUCCUAUCUGAGAACUCACAGAUUGUC | 0.929 |
| UUUGGAGUGGAGCAGGCCCAGGAAGAGAAGAAGUCAGGAAAAGACAUGACCCCUAGGGAGCUCUGACUGAGGAGGGAGGGUUGCUUCAGUCAGUGGCUCAGAGAUAGGGC | 1.77 |
| ACCAGUUUUUACUUUCUGUCUAGAAUGAUGUACAUGUAGUAGAGUAAGCCAUAAUGCUCCCAAAGUGCCUUGUUUUCUCUGAUACAAACAUAUUUAUAAGGACAUAUUCC | 0.42 |
| ACUUGUGUCGUGGGGGAAAACAUAAGGUCAUUUUCUCCCUCUACUCACAAUACUAAAGGGAAAAAAUGGAUUCAAAGCUAGGAUUUCAGGGCCCAGCAGUGUUCCUCCAU | 0.334 |
| UAUGUAAAGGAGGGAAGGGAAGGCUUAAAAAGUCAUGUUCUUGCACCCUUUUUAAAUCACAGAAAUAAAGUUUCAGUUGUCUCAAGAGACAUUAAUCAGGAAUACAGAAU | 0.292 |
| GGGUUCGGACAGGAUAGCUGAGGCUGCUGUCUCACACCCUCUAGCACAUGUAGUCCUGAGUCCUUCCUGCCGGAGAUGCCACCGGUUGCACAGCCCUCAAGAGGCCCCUU | 0.455 |

Study 3
Target: Sal-like protein 4, full length isoform A (SALL4, Homo sapiens, UniProt Q9UJQ4, residues 1-1053)
Sequence of UniProt Q9UJQ4 (whole entry, looked up): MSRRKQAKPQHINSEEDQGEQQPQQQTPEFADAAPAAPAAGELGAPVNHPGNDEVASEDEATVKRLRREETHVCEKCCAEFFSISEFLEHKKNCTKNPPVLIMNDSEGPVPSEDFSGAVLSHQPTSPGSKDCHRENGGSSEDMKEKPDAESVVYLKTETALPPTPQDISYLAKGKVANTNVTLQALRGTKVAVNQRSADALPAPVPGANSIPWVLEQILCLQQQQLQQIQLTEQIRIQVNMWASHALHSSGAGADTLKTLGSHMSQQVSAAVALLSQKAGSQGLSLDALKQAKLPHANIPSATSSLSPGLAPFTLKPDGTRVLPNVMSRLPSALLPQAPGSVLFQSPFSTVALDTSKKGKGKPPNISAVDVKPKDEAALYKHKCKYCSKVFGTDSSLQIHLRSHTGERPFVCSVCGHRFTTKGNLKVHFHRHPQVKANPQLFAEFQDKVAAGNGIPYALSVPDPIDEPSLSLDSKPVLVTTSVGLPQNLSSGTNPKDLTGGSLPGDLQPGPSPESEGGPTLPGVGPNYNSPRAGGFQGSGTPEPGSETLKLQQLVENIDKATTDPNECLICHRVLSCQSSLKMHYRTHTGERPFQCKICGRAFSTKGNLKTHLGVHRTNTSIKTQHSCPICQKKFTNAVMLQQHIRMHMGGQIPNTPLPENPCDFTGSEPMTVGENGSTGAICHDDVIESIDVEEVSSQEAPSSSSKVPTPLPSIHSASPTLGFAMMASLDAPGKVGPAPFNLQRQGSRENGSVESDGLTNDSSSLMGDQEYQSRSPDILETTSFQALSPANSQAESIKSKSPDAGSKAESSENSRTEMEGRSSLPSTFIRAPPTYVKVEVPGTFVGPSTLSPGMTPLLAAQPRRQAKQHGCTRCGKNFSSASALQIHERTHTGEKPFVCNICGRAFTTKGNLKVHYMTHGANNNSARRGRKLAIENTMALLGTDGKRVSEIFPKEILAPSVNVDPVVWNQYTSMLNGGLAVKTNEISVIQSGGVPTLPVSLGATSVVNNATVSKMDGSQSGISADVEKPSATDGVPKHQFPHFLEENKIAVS
Technique: universal PBM
Molecule type: double-stranded DNA, one strand shown
Sample: in vitro
Tested at: 600 nM
Notes: 8-mer, flanks averaged, mean of replicates
Reading: higher = stronger binding
| Strand | E-score |
| --- | --- |
| CAAACTCC | -0.0402 |
| AATAGTAA | 0.32 |
| ACTGGAGC | -0.1 |
| CTTGCCCC | -0.284 |
| AAGCAAGG | -0.123 |

Other studies, line by line
| Molecule | target | assay | system | setting | how to read | measurement | value |
| --- | --- | --- | --- | --- | --- | --- | --- |
| PhoQ, residues 284 288 289 292 302 303 SLANIV | PhoP, residues 12 14 15 18 19 LHTVL (Escherichia coli, UniProt P23836) | Sort-seq, measured: YFP reporter | E. coli | PhoQ-PhoP variant library, with: 10 µM Mg2+ | relative to: high Mg2+ state, higher = stronger signaling | fold induction | 4.34 |

For quick reference, copied from above (study 3):
| Strand | E-score |
| --- | --- |
| CAAACTCC | -0.0402 |
| AATAGTAA | 0.32 |
| ACTGGAGC | -0.1 |
